# Measured values gathered from unrelated publications.
# Numbered parts are unrelated; each lists some results of a single study.

# Study 1
# Target: Sal-like protein 4, full length isoform B (SALL4, Homo sapiens, UniProt Q9UJQ4-2, residues 1-616)
# Method: universal PBM
# Molecule type: double-stranded DNA, one strand shown
# Sample: in vitro
# Tested at: not given
# Setting: 8-mer, flanks averaged, mean of replicates
# Reading: higher = stronger binding
Sequence,E-score
AAAGAACC,-0.0484
CAATCCGA,0.0448
AGCTTCAC,-0.0353
AGATGACA,0.00744
ACCTACTG,-0.0111
CCTAACAG,-0.0983
CACGGACA,-0.153
CCCACTCA,-0.0112
GTTACTAA,0.163
CTCTTCGA,0.0106
TCAGGGAA,-0.00337

# Study 2
# Target: Myc proto-oncogene protein, bHLH-zipper, MAX partner unstated (MYC, Homo sapiens, UniProt P01106, residues 368-449)
# Chain of UniProt P01106 (368-449, looked up): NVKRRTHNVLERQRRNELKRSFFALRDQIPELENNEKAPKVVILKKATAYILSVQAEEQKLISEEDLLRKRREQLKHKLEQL
# Method: protein-binding microarray
# Molecule type: double-stranded DNA, one strand shown
# Sample: in vitro
# Tested at: not given
# Setting: k-mer, scored over probes, only values ≥0.25
# Reading: higher = stronger binding
Sequence,E-score
GACCCGCC,0.313
AGCCCATG,0.264
AGGGCATG,0.318
ACACGACG,0.255
CCGCCACC,0.271
CGCGCATA,0.277
CAGCACAC,0.262
ATGCCGCA,0.308
GCCCCACA,0.262
ATGCAACG,0.258
ATTCCATG,0.261
AGGTGCAT,0.316

# Study 3
# Target: Interferon regulatory factor 5, full length, phosphomimetic (IRF5, Homo sapiens, UniProt Q13568-2, residues 1-514, S451D/S453D/S456D/S462D)
# Method: protein-binding microarray
# Molecule type: double-stranded DNA, one strand shown
# Sample: in vitro
# Tested at: 940 nM top
# Setting: 60-bp whole probe
# Added: salmon DNA 0.4 mg/ml
# Reference: random background probes
# Reading: higher = stronger binding
# Constant ends, left off below: GCCTAGCAC … GTCTTGATTCGCTTGACGCTGCTG
Sequence,fitted relative affinity
GACGGTATCGGGTATCGGGTCGTGCTA,6.04 z-score
TTAGGTTTCCTTTTACTTTAGTGCTAG,2.52 z-score
CAGGGGCTGCCTGGATGCCGGTGCTAG,-1.14 z-score
GAAAGCCTGCTGCCAGTCTGGTGCTAG,-0.628 z-score
TCAATTCTCTTTTCACTACTGTGCTAG,2.15 z-score
TTATGTGTAGGTCTTAAATAGTGCTAG,-0.254 z-score

# Mixed results
Substance,target,assay,test system,conditions,scale,measurement,value
"PhoQ, residues 284 288 289 292 302 303 SIHLQL","PhoP, residues 12 14 15 18 19 LQHIR (Escherichia coli, UniProt P23836)","Sort-seq, item: YFP reporter",E. coli,"PhoQ-PhoP variant library, added: 10 µM Mg2+","reference: high Mg2+ state, higher = stronger signaling",fold induction,15

# A few entries again (study 2):
Sequence,E-score
GCCCCACA,0.262
ACACGACG,0.255
CCGCCACC,0.271
CGCGCATA,0.277
